Assay results collected from several papers.
Each line is one published result; not all experiments were run side by side. ± marks the error that the study gave.

CC(=O)N[C@H](CCNC(=O)c1cc(NC(=O)c2cc(NC(=O)c3cc(NC(=O)c4nccn4C)cn3C)cn2C)cn1C)C(=O)Nc1cn(C)c(C(=O)Nc2cc(C(=O)Nc3cc(C(=O)Nc4cc(C(=O)NCCCN(C)CCCN[14C](=O)c5cccc([14C](=O)O)c5)n(C)c4)n(C)c3)n(C)c2)n1 — tissue concentration (NSG male mice, LNCaP and A549 double xenograft, kidney; intraperitoneal, 20 nmol per animal, 24 h): 0.27 mg/kg
O=c1c(/C=N/NC(=S)N/N=C/c2ccccn2)coc2ccccc12 — peak potential separation (cyclic voltammetry; anhydrous DMF; Cu2+ complex, glassy carbon electrode): 0.123 mV
CC[C@H](C)[C@H](NC(=O)[C@H](Cc1ccccc1)NC(=O)[C@H](CCCN)NC(=O)[C@H](CCCNC(=N)N)NC(=O)[C@H](Cc1ccccc1)NC(=O)[C@H](Cc1ccccc1)NC(=O)[C@H](CCCCN)NC(=O)[C@H](CO)NC(=O)[C@H](CC(C)C)NC(=O)[C@H](CCCNC(=N)N)NC(=O)[C@H](CCSC)NC(=O)[C@H](C)N)C(=O)N[C@@H](CC(C)C)C(=O)N[C@@H](CCN)C(=O)N[C@@H](CCCNC(=N)N)C(=O)N[C@@H](CCCCN)C(=O)N[C@@H](CCCCN)C(=O)O — helicity (circular dichroism; 20% TFE in PBS; 200 µM, pH 7.4, 25 °C): 21.6%
O=C(CCc1ccc(CNC(C(=O)OC2CCCC2)C2CCCCC2)cn1)NO (stereo not drawn) — accumulation ratio Cmax (human, plasma; oral, 40 mg once daily, median; baseline: day 7 over day 1): 1.77
Cc1cc(O)cc(O)c1C(=O)c1c2c3c(c(O)cc(C)c3oc1=O)C(=O)c1c(O)cc(O)cc1-2 — efflux ratio (Caco-2 monolayer; 400 µM, 3 h, pH 7.4; baseline: AP to BL over BL to AP): 72.5
CN(C)CCSC(=S)N1CCN(C(=O)/C=C/c2coc3ccccc3c2=O)CC1 — curative effect (tomato spotted wilt virus; viral infection, half-leaf method; Nicotiana glutinosa; 500 µg/mL): 62.1 ± 2.5%
Cc1ccc(OCC(=O)O)cc1 — t1/2 (Sprague-Dawley rat Crl:CD(SD), male, plasma; oral, 30 mg/kg/day of parent drug, day 90, 90-day repeated dosing): 3.8 h
CCc1noc(CC)c1C(=O)O[C@H]1C(C)=C[C@]23C(=O)[C@@H](C=C(CO)[C@@H](O)[C@]12O)[C@H]1[C@@H](C[C@H]3C)C1(C)C — 20-isomer formed (phosphate buffer; 2 h, pH 7.4, 37 °C): 1%
CCN(CC)CC#CCNc1ccnc2cc(Cl)ccc12 — parent compound remaining (monkey hepatocytes; 10 µM, 30 min): 39%
[11CH3]Oc1ccc(C(=O)Nc2c(-c3cccs3)nc3ccccn23)cc1 — parent compound remaining (radio-HPLC; female Landrace × Yorkshire × Duroc pigs, arterial plasma; intravenous, 509 MBq, 5 min): 50%
CN1CCC[C@]1(C)/C=C/S(=O)(=O)NC(=O)Nc1c2c(cc3c1CCC3)CCC2 — accumulation ratio AUC(0-24) (human, plasma; oral, 100 mg twice daily, 14 days, multiple ascending dose; baseline: day 14 over day 1): 1.3
O=C(O)C1OC(OC2CCC(C(O)CC3c4c(F)cccc4-c4cncn43)CC2)C(O)C(O)C1O (stereo not drawn) — AUC(0-48 h) (human, plasma; oral, 200 mg, 0 to 48 h pooled): 2.36 µM·h
CONC(=O)/C=C/c1cccc(S(=O)(=O)Nc2ccccc2)c1 — Cmax metabolic ratio (human, normal liver function, plasma; intravenous, 400 mg/m^2 belinostat, cycle 1 day -7, geometric mean; baseline: metabolite over belinostat): 0.0948
Cn1c(=O)oc2ccc(-c3ccc(CC(C#N)NC(=O)C4CNCCCO4)c(F)c3)cc21 (stereo not drawn) — mouth ulceration incidence (human; oral, 20 mg once daily, TEAE, multiple ascending dose): 11.1%
CC(C)c1cnc(-c2cc(Cl)ccc2F)cc1Nc1ccncc1C(=O)NC(CO)CO — patients with related SAE (item: any event, worst grade; human patients; oral, dose not given, grade 5): 0%
CC(=O)OCCn1c2ccc([N+](=O)[O-])cc2c(=O)n1Cc1ccccc1 — CC50 (resazurin; peritoneal macrophages, BALB/c mice; 48 h, 10% FBS): 403 ± 13.4 µM
N#Cc1cnc2cc(OCC3CCNCC3)c(F)cc2c1Nc1cc(F)c(OCc2cccc(Cl)n2)cc1Cl — MRT (male Sprague-Dawley rat, plasma; oral, 30 mg/kg): 6.74 h
O=C(C[c-]1cccc1)Oc1ccc(-n2cccc2)cc1.[Fe+2].c1cc[cH-]c1 — Epc (cyclic voltammetry; acetonitrile; baseline: Ag/AgCl): 431 mV
Cc1cc2c(NC(=O)N[C@@H]3CC(C)(C)Oc4c(OC(F)(F)F)cccc43)cccc2cn1 — body temperature decrease (telemetry; male Sprague-Dawley rats; oral, 100 µmol/kg): 2 °C
CCCCCCCCCCCCCCCC(=O)N[C@@H](CCCCN)C(=O)N[C@@H](CCCCN)C(=O)N[C@@H](CO)C(=O)N[C@@H](CCCNC(=N)N)C(=O)N[C@@H](C)C(=O)N[C@@H](CC(C)C)C(=O)N[C@@H](Cc1ccccc1)C(N)=O — prothrombin time (cynomolgus monkey, female; 3 mg/kg, day 5): 11.6 ± 0.2 s
CC(C)C[C@H](NC(=O)[C@H](CCCNC(=N)N)NC(=O)[C@H](CCC(N)=O)NC(=O)[C@@H](NC(=O)[C@H](C)NC(=O)[C@@H]1CSSC[C@H](NC(=O)[C@@H](N)CCCCN)C(=O)N[C@@H](CC(N)=O)C(=O)N[C@@H]([C@@H](C)O)C(=O)N[C@@H](C)C(=O)N[C@@H]([C@@H](C)O)C(=O)N1)[C@@H](C)O)C(=O)N[C@@H](C)C(=O)N[C@@H](CC(N)=O)C(=O)N[C@@H](Cc1ccccc1)C(=O)N[C@@H](CC(C)C)C(=O)N[C@H](C(=O)N[C@@H](CCCNC(=N)N)C(=O)N[C@@H](CO)C(=O)N[C@@H](CO)C(=O)N[C@@H](CC(N)=O)C(=O)N[C@@H](CC(N)=O)C(=O)N[C@@H](Cc1ccccc1)C(=O)N1CCC[C@H]1C(=O)N[C@@H](C)C(=O)N1CCC[C@H]1C(=O)N[C@@H](CC(C)C)C(=O)N[C@@H](CO)C(=O)N[C@@H](CO)C(=O)N[C@H](C(=O)N[C@@H](CC(N)=O)C(=O)N[C@H](C(=O)NCC(=O)N[C@@H](CO)C(=O)N[C@@H](CC(N)=O)C(=O)N[C@H](C(=O)N[C@@H](Cc1ccc(O)cc1)C(N)=O)[C@@H](C)O)C(C)C)[C@@H](C)O)C(C)C — loss from soluble fraction (PBS; 500 µM, 24 h, pH 7.4, with: equimolar insulin; baseline: time zero): < 15%
CC(C)(Sc1cc[n+]([O-])cc1-c1ccc(C#N)c2ccccc12)C(=O)OC1OC(C(=O)O)C(O)C(O)C1O (stereo not drawn) — AUC(0-inf) increase (adult men, plasma; oral, 15 mg verinurad, severe renal impairment; baseline: normal renal function): 527%
CCCC[C@H](NC(=O)CNC(=O)CNC(=O)CN1CCN(CC(=O)O)CCN(CC(=O)O)CCN(CC(=O)O)CC1)C(=O)N[C@H]1CC(=O)NCCCC[C@@H](C(N)=O)NC(=O)[C@H](Cc2c[nH]c3ccccc23)NC(=O)[C@H](CCCNC(=N)N)NC(=O)[C@@H](Cc2ccccc2)NC(=O)[C@H](Cc2c[nH]cn2)NC1=O [copper-64 labelled] — tissue uptake (C57 mouse B16/F1 melanoma, kidneys; 24 h): 5.39 ± 0.42 %ID/g
CN(C)CCCSC(=S)N1CCN(C(=O)/C=C/c2coc3ccc(F)cc3c2=O)CC1 — inactivation effect (tomato spotted wilt virus; viral infection, half-leaf method; Nicotiana glutinosa; 500 µg/mL): 72.8%
NS(=O)(=O)c1ccc(-n2cc(CNc3ccc(F)cc3)c(-c3ccc(OCc4ccccc4)cc3)n2)cc1 — ulcer severity index (rat, gastric mucosa; oral, 60 mg/kg, 17 h; baseline: control score subtracted): 0.85 ± 0.36
CN(C)c1cc(CN2CCCCC2)c(O)c2c1C[C@H]1C[C@H]3[C@H](N(C)C)C(O)=C(C(N)=O)C(=O)[C@@]3(O)C(O)=C1C2=O — oral bioavailability (cynomolgus monkey, plasma; oral, 5 mg/kg): 7.8%
CN[C@@H]1[C@H](O)[C@H](NC)[C@H]2O[C@]3(O)[C@H](O[C@@H]2[C@H]1O)O[C@H](C)C[C@@]3(O)CNCc1ccc(F)cc1 — volume of distribution (rat; intravenous, 10 mg/kg): 0.64 L/kg
Cc1nc(C)c(C=[N+]([O-])C(C)(C)C)nc1C — concentration (Sprague-Dawley rat, both sexes, brain; oral, 45 mg/kg, 30 min): 22100 ng/g
CCCC(CCC)NC(=O)c1ccc(OC2OC(C(=O)O)C(O)C(O)C2O)c(OC)c1 (stereo not drawn) — Tmax (male Sprague-Dawley rat, plasma; oral, 20 mg/kg of parent drug): 4.5 h
N=C(N)NCCC[C@@H]1NC(=O)[C@H](Cc2c[nH]c3ccccc23)NC(=O)[C@@H](CC2CCCCC2)NC(=O)[C@@H]2CCCN2C(=O)[C@@H](NC(=O)CCc2ccccc2)CCCNC1=O — MRT(0-last) (C57BL/6J mouse, plasma spinal cord; oral, 1 mg/kg single dose): 0.8 h

Excerpt of the above:
N=C(N)NCCC[C@@H]1NC(=O)[C@H](Cc2c[nH]c3ccccc23)NC(=O)[C@@H](CC2CCCCC2)NC(=O)[C@@H]2CCCN2C(=O)[C@@H](NC(=O)CCc2ccccc2)CCCNC1=O — MRT(0-last) (C57BL/6J mouse, plasma spinal cord; oral, 1 mg/kg single dose): 0.8 h
[11CH3]Oc1ccc(C(=O)Nc2c(-c3cccs3)nc3ccccn23)cc1 — parent compound remaining (radio-HPLC; female Landrace × Yorkshire × Duroc pigs, arterial plasma; intravenous, 509 MBq, 5 min): 50%
